Published values collected from several papers.
Every numbered part comes from another study and shows a few of its results, in no order. Changes are numbered by the printed parent chain.

Block 1
Target: Histone acetyltransferase KAT6A, winged helix 2, GST fusion (KAT6A, Homo sapiens, UniProt Q92794, residues 85-181)
Technique: protein binding microarray
Molecule type: double-stranded DNA, one strand shown
Sample: in vitro
Concentration: not given
Notes: 8-mer, flanks averaged, mean of 2 arrays, mostly near background
Reference: not given
Reading: higher = stronger binding
Target sequence (chain): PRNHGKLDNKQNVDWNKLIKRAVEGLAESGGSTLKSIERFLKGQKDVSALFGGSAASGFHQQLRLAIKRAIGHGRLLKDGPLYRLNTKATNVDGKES
The E-score of `AAGACAGA` is reported as -0.0239.
For `AAGTACTA`, the E-score was -0.0311.
For `ATTCTTCC`, the E-score was -0.147.
For `AGTGTTTA`, the E-score was -0.00304.
With `ACGGACCG` the E-score was 0.0423.
For `ATATTGTC`, the E-score was -0.144.
For `CTTACTGC`, the E-score was -0.0597.
`ATCGACCA` gave an E-score of -0.0646.
With `GATGGGCA` the E-score was 0.0511.
With `ATGTGTGC` the E-score was -0.212.
For `ATGACAGA`, the E-score was -0.0787.
The E-score of `GAAACACA` is reported as 0.0878.
`AAATATTC` gave an E-score of 0.188.
For `AGGATCTG`, the E-score was -0.173.
`AACTTCTC` has an E-score of -0.0625.
The E-score of `AATATAGA` is reported as 0.0431.
The E-score of `CTGAGTCA` is reported as -0.0976.
`AAAGGAGT` has an E-score of 0.0308.
`AGCCTAAT` has an E-score of -0.0652.

Block 2
Target: CCNF, cyclin fold, Cln2 fusion (human)
Technique: yeast growth competition, sequencing
Sample: yeast
Notes: strong parent motif
Reference: not given
Reading: higher = stronger binding
Starting sequence: PLK5 docking peptide (human); IFRKVGQRLLTQC
For `IARKVGQRLLTQC [F2A]`, “normalised enrichment score” read 1.21.
Under “normalised enrichment score”, `IFRKVGQRLATQC [L10A]` is recorded as 1.15.
Under “normalised enrichment score”, `IFRKVAQRLLTQC [G6A]` is recorded as 2.77.
For `IFRKVGQRLLTQA [C13A]`, “normalised enrichment score” read 0.219.
Under “normalised enrichment score”, `IFRKAGQRLLTQC [V5A]` is recorded as 1.41.
`IFRKVGQRLLTAC [Q12A]`: “normalised enrichment score” 3.11.

Block 3
Target: RING finger protein unkempt homolog, zinc fingers 1-6, GST-SBP tag (UNK, Homo sapiens, UniProt Q9C0B0, residues 30-357)
Technique: RNA Bind-n-Seq
Molecule type: RNA
Sample: in vitro
Concentration: not given
Notes: RNA with constant flanks, ends assumed
Reference: input RNA pool
Reading: higher = stronger binding
Shared flanks, not repeated: GGGAGUUCUACAGUCCGACGAUC … CAACAGAGGAUUGAGCAUCA
Residues (chain): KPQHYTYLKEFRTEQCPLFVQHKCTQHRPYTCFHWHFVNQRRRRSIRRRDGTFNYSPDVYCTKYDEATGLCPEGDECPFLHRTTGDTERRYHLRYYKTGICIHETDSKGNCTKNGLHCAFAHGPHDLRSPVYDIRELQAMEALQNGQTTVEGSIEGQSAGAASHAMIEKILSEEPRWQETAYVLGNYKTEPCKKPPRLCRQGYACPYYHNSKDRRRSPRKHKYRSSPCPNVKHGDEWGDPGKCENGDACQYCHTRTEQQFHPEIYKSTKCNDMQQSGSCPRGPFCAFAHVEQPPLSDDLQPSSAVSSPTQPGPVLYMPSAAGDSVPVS
The bound/input enrichment of `GAUAAGUGUGUGGAGAAGCCAGGAAGUCGGCUAGACUCCCGCACUGAAAACUGCCUCUCCCGCUGUGUGGAUCGCUUCAUUGACACUACUCUUGCCAUCACCGGUCGGUUUGCCCAGAUC` is reported as 0.223 ratio.
`UUGCCUUUUCAGAGCAUGAGGUCAGGCUCUGUAUCCCUCCUUUUCCUAGCUGAUAUUCUAACCCGAAGCAUUUGUCAAUUCCUUUGCCUCCCAACUGACAACACACGUUCAUUUUCCAAC` has a bound/input enrichment of 0.88 ratio.
With `GCGGUCCCCACGGUCCUGGUAACCCCCCUGGGCGCCCUUGGAGUACCGUUCGGGUCCAUUUCCGCUUCCUAUCUCCUGAAGGAAAAGCUCAACAUCUUGGGCAAGUUGGGGUGCCUGCUA` the bound/input enrichment was 0.19 ratio.
For `GACUAUACAAUCCCAGAUGAGUAUAGAAUUGGACCAUAUCAGCCCAAUGUUCCUGUUGGUACCGACUAUGUGAUACCUAAAACAGGGUUUUACUGUAAGCUGUGUUCACUCUUUUAUACA`, the bound/input enrichment was 0.0928 ratio.
With `AGGGAUAUUGGUGCUGGAAAGGGAAAAUACUAUGCUGUCAAUUUUCCCAUGAGAGAUGGUACCGAUGAUGAAUCAUAUGGACAAAUUUUUAAGCCUAUCAUCUCAAAAGUGAUGGAGAUG` the bound/input enrichment was 0.18 ratio.
For `UUACUUACUUAAUUUCUGGAGUUCGGGCCUCUGGGAUAGGCCCCAGACUGGGCCGGAAUGUCCGUGAAGGUUUUAUUGUGCCCGGUUGGAGGAUAAUGUUCUUUGUGUACUUUUUGUGGG`, the bound/input enrichment was 0.308 ratio.
The bound/input enrichment of `AUGUGGUAUCGUUUACGGUUAUUAAAACCCCAGCCAAAUAUUAUUCCUACAGUAAAGAAAACCGUUCUGCUUGCAGGAUGGGCAUUGUUCUUAUUCCUUGCAUAUAAAGUUUCCAAAACA` is reported as 0.158 ratio.
`UGUGACAAGCUUUAUACCUGCCGGCUGUGUCACGAUACCAAUGAAGAUCAUCAGCCCGAUCGUUUCAAAGUCAAGGAAGUGCAGUGCAUCAACUGUGAAAAACUCCAACAUGCCCAGCAG` has a bound/input enrichment of 0.135 ratio.

Block 4
Target: ABI1, truncated, D143A, DHFR fusion (Arabidopsis thaliana)
Technique: DHFR PCA, deep sequencing
Sample: yeast
Notes: methotrexate growth selection, single substitutions
Added: (+)-ABA 17 µM
Reference: wild-type fitted maximum
Reading: higher = stronger binding
Starting sequence: PYL1, truncated, DHFR fusion (Arabidopsis thaliana); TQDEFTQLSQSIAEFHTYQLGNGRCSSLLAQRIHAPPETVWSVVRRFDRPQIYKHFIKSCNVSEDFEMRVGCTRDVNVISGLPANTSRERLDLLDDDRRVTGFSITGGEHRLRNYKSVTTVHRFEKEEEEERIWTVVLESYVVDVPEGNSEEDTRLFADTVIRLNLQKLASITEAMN
`R99F` — result for “relative binding score”: 99.7%.
Under “relative binding score”, `I105A` is recorded as 10.9%.
Under “relative binding score”, `R45C` is recorded as 18.5%.
For `E129T`, “relative binding score” read 83.4%.
`K54G` — result for “relative binding score”: -3.22%.
`N77M`: “relative binding score” 85.5%.
For `E151L`, “relative binding score” read 77%.
For `L166C`, “relative binding score” read 3.83%.
For `Q19L`, “relative binding score” read 64.3%.
Under “relative binding score”, `T119W` is recorded as -15.8%.
`L93P`: “relative binding score” 19%.
`F157I`: “relative binding score” 42.8%.
For `V78R`, “relative binding score” read 7.86%.
`S26M` — result for “relative binding score”: 64.4%.

Block 5
Target: Sal-like protein 4, full length isoform A (SALL4, Homo sapiens, UniProt Q9UJQ4, residues 1-1053)
Chain of UniProt Q9UJQ4 (whole entry, looked up): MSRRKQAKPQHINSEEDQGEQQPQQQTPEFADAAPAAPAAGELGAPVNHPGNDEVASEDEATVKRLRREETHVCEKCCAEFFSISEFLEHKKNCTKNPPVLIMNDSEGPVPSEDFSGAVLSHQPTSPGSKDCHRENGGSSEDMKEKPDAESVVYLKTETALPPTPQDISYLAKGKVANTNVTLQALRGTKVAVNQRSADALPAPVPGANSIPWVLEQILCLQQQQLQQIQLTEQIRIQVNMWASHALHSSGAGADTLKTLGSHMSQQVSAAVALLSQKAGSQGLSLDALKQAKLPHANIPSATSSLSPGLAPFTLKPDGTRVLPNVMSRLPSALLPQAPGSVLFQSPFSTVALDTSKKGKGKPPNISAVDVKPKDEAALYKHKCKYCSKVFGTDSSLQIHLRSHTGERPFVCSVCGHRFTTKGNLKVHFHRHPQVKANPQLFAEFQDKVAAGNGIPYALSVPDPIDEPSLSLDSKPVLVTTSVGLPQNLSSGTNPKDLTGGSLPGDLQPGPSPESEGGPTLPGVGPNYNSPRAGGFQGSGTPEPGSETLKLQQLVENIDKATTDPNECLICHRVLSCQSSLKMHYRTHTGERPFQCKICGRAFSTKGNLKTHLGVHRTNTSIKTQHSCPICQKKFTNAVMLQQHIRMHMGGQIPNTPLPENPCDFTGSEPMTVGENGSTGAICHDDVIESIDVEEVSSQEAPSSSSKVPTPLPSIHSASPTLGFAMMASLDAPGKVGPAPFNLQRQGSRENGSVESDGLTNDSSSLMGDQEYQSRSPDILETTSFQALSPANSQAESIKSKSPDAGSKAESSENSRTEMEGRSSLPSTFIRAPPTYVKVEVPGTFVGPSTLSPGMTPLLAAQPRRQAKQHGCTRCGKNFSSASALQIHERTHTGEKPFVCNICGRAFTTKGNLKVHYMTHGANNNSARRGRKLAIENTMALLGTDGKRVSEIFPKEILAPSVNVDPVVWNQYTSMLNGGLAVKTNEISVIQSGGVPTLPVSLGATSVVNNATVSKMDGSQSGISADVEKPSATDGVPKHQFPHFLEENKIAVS
Technique: universal PBM
Molecule type: double-stranded DNA, one strand shown
Sample: in vitro
Concentration: 600 nM
Notes: 8-mer, flanks averaged, mean of replicates
Reading: higher = stronger binding
For `CGGTGCAC`, the E-score was -0.271.
With `AGTACGTC` the E-score was 0.0708.
The E-score of `CTCGACAG` is reported as -0.137.
The E-score of `TACCCATA` is reported as 0.191.
The E-score of `AGCGGACT` is reported as -0.204.
For `CGAACTAG`, the E-score was 0.0146.
With `CGAGTCAA` the E-score was -0.0412.
`AAGTTGCC` has an E-score of -0.227.
The E-score of `GTCCCTAA` is reported as -0.0124.
For `AGGCCGCA`, the E-score was -0.282.
`ATACCTAC` gave an E-score of 0.142.
The E-score of `CTGGGTTC` is reported as -0.226.
For `AGACGCTG`, the E-score was -0.168.
`TAGGTGCA` has an E-score of -0.113.
With `ATTTGCAG` the E-score was 0.182.
`CCGTCAAG` gave an E-score of -0.212.
For `ATCCCGCC`, the E-score was -0.3.
`TATTTTGA` has an E-score of 0.328.
`CAATATTC` gave an E-score of 0.332.
For `CGTTGTAC`, the E-score was 0.192.
`CTGTGCCA` has an E-score of -0.139.
For `GCCTTACA`, the E-score was -0.0731.
With `ATGAGCAG` the E-score was 0.0538.
`CGCGGCAG` gave an E-score of -0.336.
`AGCCAGCT` gave an E-score of -0.231.

Repeated from above (block 1):
With `GATGGGCA` the E-score was 0.0511.
The E-score of `AAGACAGA` is reported as -0.0239.
`AGCCTAAT` has an E-score of -0.0652.
With `ACGGACCG` the E-score was 0.0423.
The E-score of `AATATAGA` is reported as 0.0431.
For `AAGTACTA`, the E-score was -0.0311.
